Measured values collected from several papers.
A part holds a random share of what one study measured. “And” joins repeats or separate records; there may be more than shown.
Sequence of UniProt Q08345 (whole entry, looked up): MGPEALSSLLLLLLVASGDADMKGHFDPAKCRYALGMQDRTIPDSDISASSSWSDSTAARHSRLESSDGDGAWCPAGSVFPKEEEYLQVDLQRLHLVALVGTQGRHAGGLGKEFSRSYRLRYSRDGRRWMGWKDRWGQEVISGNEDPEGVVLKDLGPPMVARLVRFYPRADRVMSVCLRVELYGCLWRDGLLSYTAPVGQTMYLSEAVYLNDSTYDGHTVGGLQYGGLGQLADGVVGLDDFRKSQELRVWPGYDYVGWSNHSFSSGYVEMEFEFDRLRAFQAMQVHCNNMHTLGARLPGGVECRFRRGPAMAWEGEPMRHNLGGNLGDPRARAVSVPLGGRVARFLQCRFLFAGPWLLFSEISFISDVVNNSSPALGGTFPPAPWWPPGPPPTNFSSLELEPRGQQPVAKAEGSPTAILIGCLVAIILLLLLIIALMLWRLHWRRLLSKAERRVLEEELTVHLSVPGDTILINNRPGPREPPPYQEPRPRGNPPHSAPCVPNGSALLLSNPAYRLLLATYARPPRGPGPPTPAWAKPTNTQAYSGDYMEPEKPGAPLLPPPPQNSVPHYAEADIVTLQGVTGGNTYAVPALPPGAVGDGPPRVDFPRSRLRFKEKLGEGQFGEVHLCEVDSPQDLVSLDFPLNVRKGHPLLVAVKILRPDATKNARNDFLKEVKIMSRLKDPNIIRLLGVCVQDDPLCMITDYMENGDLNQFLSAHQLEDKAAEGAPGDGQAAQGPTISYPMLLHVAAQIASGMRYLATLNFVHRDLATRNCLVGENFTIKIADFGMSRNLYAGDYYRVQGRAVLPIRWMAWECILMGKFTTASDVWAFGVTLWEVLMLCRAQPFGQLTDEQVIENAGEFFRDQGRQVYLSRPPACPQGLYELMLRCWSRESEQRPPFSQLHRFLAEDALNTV
Sequence of UniProt P49336 (whole entry, looked up): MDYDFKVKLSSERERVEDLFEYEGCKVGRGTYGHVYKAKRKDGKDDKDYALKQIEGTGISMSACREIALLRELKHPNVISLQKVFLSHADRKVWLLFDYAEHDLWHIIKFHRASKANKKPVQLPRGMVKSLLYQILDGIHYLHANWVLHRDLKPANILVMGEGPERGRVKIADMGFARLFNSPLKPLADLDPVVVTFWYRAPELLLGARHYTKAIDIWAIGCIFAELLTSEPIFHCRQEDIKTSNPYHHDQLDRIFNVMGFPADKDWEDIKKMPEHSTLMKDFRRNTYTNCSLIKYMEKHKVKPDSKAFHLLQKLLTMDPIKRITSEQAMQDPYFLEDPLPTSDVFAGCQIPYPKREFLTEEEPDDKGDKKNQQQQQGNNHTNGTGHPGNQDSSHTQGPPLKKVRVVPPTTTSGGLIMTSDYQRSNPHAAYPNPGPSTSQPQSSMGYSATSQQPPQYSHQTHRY

Study 1
Compound: CN1CCN(C(=O)c2ccc(NC(=O)Nc3ccc(N(C)c4ccnc(Nc5ccc(CS(C)(=O)=O)cc5)n4)cc3)cc2)CC1
Concentration: 1 µM
target | remaining activity [%]
KDR (Homo sapiens, UniProt P35968) | 1.1
FLT1 (Homo sapiens, UniProt P17948) | 0.4
DDR1 (Homo sapiens, UniProt Q08345) | 0
FLT4 (Homo sapiens, UniProt P35916) | 2
CDK8 (Homo sapiens, UniProt P49336) | 85

Study 2
Target: Beta-2 adrenergic receptor (ADRB2, Homo sapiens, UniProt P07550)
Sequence of UniProt P07550 (whole entry, looked up): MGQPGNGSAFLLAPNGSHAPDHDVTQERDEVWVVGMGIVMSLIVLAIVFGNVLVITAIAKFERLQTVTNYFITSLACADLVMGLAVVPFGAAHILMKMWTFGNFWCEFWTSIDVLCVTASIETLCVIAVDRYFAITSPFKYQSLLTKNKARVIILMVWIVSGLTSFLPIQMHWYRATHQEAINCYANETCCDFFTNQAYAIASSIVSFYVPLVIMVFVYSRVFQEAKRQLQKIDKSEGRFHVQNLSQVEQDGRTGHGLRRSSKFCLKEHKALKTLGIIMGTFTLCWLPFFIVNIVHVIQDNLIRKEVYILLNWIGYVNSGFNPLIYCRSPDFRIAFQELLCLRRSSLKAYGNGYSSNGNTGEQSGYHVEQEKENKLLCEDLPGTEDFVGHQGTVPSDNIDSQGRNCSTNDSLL
Effect on: ligand displacement
Concentration: 10 µM
SMILES | inhibition
Cc1ccccc1Oc1cc(-n2c(=O)cc(C(F)(F)F)[nH]c2=O)c2ccccc2c1Cl | 11.2%
CS(=O)(=O)N1CCCC(NC(=O)[C@H](CCC2CCCCC2)NC(=O)c2ccc(CNC(=O)c3cnc4ccccn34)cc2)C1 (stereo partly drawn) | 16.3%
CN(C)c1ncnc(-c2ccc3nc(Nc4cc(CN5CCN(C(=O)CC(F)(F)F)CC5)ccn4)[nH]c3c2)c1Cl | 12.6%
CC[C@H](CC(=O)O)n1c(=O)c2ncccc2n(Cc2cn(C)c3cc(C)cc(C)c23)c1=O | 10.5%
c1ccc(N2CCN(Cc3nc4ccccc4[nH]3)CC2)nc1 | -6.61%
CC1CCN(c2ccnc(NCc3cn(C)cn3)n2)CC1 | -3.61%
Cc1cc(Nc2nccc(C)n2)cc(-c2cnc([C@@]3(O)CC[C@H](C(=O)O)C(C)(C)C3)s2)c1 | 5.53%
C[C@H](c1ccnc(Nc2nc3ccc(-c4cc(N(C)C)ncn4)cc3[nH]2)c1)N1CCN(C(=O)CC(F)(F)F)CC1 | 33.3%
CN(C)C(=O)c1sc2nc(N3CCC(S(C)(=O)=O)CC3)cc(C(F)(F)F)c2c1N | 6.22%
COc1cc(C(=O)O)ncc1C#Cc1ccccc1NS(=O)(=O)c1cccc2c(N(C)C)ccnc12 | -2.19%
Cn1cc(Cl)c2c(Oc3c(F)cc(Nc4cc(Cl)nc(N)n4)cc3F)ccnc21 | 10.2%
O=C(NCCCC1CCCCC1)c1ccc(CNC(=O)c2cnn(-c3ccccc3)c2C(F)(F)F)cc1 | 12.4%
CN1CCN(c2cnc3c(C4CCN(C(=O)c5ccc(OC(F)(F)F)cc5N)CC4)ncnc3c2)CC1 | -4.21%
Cn1nc(C(=O)NCc2ccc(C(=O)O)cc2)cc1-c1ccc2[nH]ccc2c1 | 6.74%
NC(=O)c1ccc2nc(-c3ccc(C4(N)CCC4)cc3)c(-c3ccccc3)n2n1 | 21.5%
CN1CCN(C(=O)C(C)(C)c2ccc(C(=O)Nc3cn4cc(-c5cc(C(C)(C)C)cc(C(C)(C)C)c5)ccc4n3)cc2)CC1 | 17.2%
Cc1noc([C@H]2C[C@@H](c3ccc(C(F)(F)F)cc3)CN(C(=O)N3CCS(=O)(=O)C3)C2)n1 | 24%
COc1cccc(NC(=O)c2nc3scc(CN(C)Cc4ccccc4)c3c(=O)[nH]2)c1 | -6.81%
O=C1NC(c2ccccn2)Sc2ccccc21 (stereo not drawn) | -13.9%
C[C@@H](c1cccc(C#N)c1)n1cc(Cl)cc(C(N)=O)c1=N | 13.8%
COc1cc(N[C@@H]2CCCC[C@]2(O)C(F)(F)F)ccc1F | 22.2%
C[C@@H]1CN(c2cc(-c3n[nH]c4ccc(OC5(C)CC5)cc34)ncn2)C[C@H](C)O1 | 26.4%

Study 3
Target: DNA polymerase theta, ATPase domain (POLQ, Homo sapiens, UniProt O75417)
Sequence of UniProt O75417 (whole entry, unmodified, looked up): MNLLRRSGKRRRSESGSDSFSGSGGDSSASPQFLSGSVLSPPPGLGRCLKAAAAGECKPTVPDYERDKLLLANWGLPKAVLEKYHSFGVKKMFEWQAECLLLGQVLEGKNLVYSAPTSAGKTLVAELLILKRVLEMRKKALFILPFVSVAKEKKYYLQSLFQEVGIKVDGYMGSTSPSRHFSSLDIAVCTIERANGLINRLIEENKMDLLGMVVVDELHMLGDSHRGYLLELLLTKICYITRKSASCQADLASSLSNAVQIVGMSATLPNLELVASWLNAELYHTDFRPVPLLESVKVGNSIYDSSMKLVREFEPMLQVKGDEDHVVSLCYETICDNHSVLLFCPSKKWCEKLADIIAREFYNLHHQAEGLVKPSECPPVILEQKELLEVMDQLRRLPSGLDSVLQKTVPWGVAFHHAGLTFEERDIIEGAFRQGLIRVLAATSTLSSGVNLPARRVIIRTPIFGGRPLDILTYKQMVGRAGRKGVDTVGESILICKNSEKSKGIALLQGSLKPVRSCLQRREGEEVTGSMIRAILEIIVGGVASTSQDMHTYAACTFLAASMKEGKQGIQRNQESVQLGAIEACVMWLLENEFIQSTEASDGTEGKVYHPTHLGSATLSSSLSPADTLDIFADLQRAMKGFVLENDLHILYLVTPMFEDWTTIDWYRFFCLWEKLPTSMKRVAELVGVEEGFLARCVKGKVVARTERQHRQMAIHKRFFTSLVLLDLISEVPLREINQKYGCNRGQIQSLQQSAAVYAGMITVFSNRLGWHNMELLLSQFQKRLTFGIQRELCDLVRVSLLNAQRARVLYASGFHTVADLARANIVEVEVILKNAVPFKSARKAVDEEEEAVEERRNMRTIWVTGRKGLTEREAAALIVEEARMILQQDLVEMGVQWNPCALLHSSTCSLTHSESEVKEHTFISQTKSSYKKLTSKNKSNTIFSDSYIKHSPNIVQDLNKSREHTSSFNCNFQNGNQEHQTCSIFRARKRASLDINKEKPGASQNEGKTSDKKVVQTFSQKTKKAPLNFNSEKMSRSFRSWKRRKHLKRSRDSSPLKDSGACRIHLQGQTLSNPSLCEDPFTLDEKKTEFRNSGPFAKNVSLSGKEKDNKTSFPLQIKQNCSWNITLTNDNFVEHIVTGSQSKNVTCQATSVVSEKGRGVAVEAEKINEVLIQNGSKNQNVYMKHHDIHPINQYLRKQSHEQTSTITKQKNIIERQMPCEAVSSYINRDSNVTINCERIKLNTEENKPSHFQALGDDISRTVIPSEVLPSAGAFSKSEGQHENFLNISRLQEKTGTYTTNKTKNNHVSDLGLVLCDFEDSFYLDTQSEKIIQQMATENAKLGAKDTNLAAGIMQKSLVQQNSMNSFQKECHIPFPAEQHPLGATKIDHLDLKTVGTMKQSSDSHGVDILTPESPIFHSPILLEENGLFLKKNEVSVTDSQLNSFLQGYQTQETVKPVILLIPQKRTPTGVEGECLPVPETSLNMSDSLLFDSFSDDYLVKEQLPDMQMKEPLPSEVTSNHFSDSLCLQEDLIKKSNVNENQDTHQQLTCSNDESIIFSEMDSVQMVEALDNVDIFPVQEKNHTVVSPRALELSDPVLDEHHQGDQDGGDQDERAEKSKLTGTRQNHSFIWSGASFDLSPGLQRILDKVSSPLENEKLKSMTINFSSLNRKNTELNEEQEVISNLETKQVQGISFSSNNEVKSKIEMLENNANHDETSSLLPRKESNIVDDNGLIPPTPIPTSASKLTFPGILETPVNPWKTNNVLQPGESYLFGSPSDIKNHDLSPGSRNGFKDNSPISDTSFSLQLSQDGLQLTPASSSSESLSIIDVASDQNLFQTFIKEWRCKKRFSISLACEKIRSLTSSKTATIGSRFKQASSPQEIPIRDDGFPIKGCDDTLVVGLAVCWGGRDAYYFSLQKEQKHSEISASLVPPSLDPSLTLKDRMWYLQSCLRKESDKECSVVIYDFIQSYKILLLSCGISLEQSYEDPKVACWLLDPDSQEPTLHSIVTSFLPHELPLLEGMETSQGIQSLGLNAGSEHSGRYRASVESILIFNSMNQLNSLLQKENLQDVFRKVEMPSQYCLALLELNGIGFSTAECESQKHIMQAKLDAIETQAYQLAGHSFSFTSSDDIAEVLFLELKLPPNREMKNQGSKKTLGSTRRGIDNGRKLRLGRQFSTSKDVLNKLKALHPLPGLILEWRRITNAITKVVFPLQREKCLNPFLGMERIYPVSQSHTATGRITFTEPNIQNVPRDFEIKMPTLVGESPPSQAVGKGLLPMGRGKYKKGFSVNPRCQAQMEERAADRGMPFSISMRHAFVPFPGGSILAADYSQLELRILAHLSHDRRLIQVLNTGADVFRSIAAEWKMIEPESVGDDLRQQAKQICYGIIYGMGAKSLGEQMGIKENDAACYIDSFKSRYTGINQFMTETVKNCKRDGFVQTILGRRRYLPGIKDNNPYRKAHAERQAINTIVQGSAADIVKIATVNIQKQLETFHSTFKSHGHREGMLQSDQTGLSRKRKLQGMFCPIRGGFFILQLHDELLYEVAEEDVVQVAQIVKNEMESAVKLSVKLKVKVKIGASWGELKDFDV
Effect on: enzyme activity
Action: inhibitor
Concentration: 77 µM
Relative to: untreated
Compound | remaining activity
C[N+]1(C)C2CC(OC(=O)[C@H](CO)c3ccccc3)CC1C1OC12 (single isomer, unassigned; (-)) | 99.2%
S=C(NCc1ccc2c(c1)OCO2)N1CCN(c2ncnc3c2oc2ccccc23)CC1 | 99.5% and 94.9% and 101% and 92.1%
CN1CCC(NC(=O)c2cc(-c3c(O)cc(O)cc3Oc3ccc([N+](=O)[O-])cc3)on2)CC1 | 104%
CC(=O)Nc1c(I)c(C(=O)N[C@H]2C(O)O[C@H](CO)[C@@H](O)[C@@H]2O)c(I)c(N(C)C(C)=O)c1I (stereo partly drawn) | 97.5%
O=C1CCC(c2ccc(-n3ccnc3)cc2)=NN1 | 99.6%
CCCCCCCCCCCCCCCCn1cc[n+](Cc2ccccc2)c1C | 99.1%
N#C/C(=C\c1ccc(O)c(O)c1)C(=O)c1ccc(O)c(O)c1 | 81.2%

Study 4
Target: Calcium/calmodulin-dependent protein kinase type II subunit alpha (CAMK2A, Homo sapiens, UniProt Q9UQM7)
Sequence of UniProt Q9UQM7 (whole entry, looked up): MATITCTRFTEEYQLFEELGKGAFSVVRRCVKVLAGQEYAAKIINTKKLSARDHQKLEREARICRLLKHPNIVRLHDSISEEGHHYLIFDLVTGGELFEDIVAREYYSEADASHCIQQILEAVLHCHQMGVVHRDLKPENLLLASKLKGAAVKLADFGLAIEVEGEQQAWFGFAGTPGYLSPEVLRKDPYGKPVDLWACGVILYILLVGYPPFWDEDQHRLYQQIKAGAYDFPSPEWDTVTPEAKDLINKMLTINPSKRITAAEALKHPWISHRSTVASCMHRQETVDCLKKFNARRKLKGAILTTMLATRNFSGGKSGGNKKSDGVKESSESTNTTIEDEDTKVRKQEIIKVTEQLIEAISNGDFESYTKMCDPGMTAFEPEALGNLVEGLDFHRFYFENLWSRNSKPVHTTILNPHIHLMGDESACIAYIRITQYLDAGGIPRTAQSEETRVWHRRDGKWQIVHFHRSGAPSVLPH
Effect on: enzyme activity
Action: inhibitor
Concentration: 10 µM
SMILES | inhibition [%]
O=C(/C=C/C=C/c1ccc2c(c1)OCO2)N1CCCCC1 | -14
COC(=O)C1=CO[C@@H](O[C@@H]2O[C@H](CO)[C@@H](O)[C@H](O)[C@H]2O)[C@@H]2[C@@H](C)CC(=O)[C@]12O | 25
C=CCN1CCc2nc(N)sc2CC1 | -10
COc1ccc2c(c1OC)C(=O)OC2 | 3
N#CC(c1ccc(Cl)cc1)c1c(Cl)cc(-n2ncc(=O)[nH]c2=O)cc1Cl (stereo not drawn) | -19
COc1ccc(CCNC(=O)/C=C/c2ccc(O)c(O)c2)cc1 | -13
CC(C)=CCC[C@](C)(O[C@@H]1O[C@H](CO[C@@H]2O[C@H](CO)[C@@H](O)[C@H](O)[C@H]2O)[C@@H](O)[C@H](O)[C@H]1O)[C@H]1CC[C@]2(C)[C@@H]1[C@H](O)C[C@@H]1[C@@]3(C)CC[C@H](O[C@@H]4O[C@H](CO)[C@@H](O)[C@H](O)[C@H]4O[C@@H]4O[C@H](CO)[C@@H](O)[C@H](O)[C@H]4O)C(C)(C)[C@@H]3CC[C@]12C | -7

Study 5
Cell line: mouse MPNST tumor cells
Technique: high-content nuclear imaging
Item: cell number
Concentration: 10 µM
Time: 12 h
Notes: mean of 2 replicates
Relative to: plate mean
Reading: higher = more cells
SMILES | nuclei count
COC(=O)C1=C(C)NC(C)=C(C(=O)OCC(C)C)C1c1ccccc1[N+](=O)[O-] (stereo not drawn) | 1.06 z-score and 0.855 z-score
Cn1ccnc1S | 0.193 z-score
COc1cc2c(Nc3ccc(NC(=O)c4ccccc4)cc3)ncnc2cc1OCCCN1CCOCC1 | -4.84 z-score
CC(C)NCC(O)c1ccc(NS(C)(=O)=O)cc1 (stereo not drawn) | 0.678 z-score
CC(C)c1ccc(NC(=O)c2cccs2)c(-c2nc3ccccc3[nH]c2=O)c1 | 0.0923 z-score
CN1CC(=O)N=C1NC(=O)Nc1cccc(Cl)c1 | -0.37 z-score
Nc1nc2c(ccc3ccccc32)s1 | 1.96 z-score

Excerpt of the above (study 2):
SMILES | inhibition
CN1CCN(c2cnc3c(C4CCN(C(=O)c5ccc(OC(F)(F)F)cc5N)CC4)ncnc3c2)CC1 | -4.21%
Cn1nc(C(=O)NCc2ccc(C(=O)O)cc2)cc1-c1ccc2[nH]ccc2c1 | 6.74%
NC(=O)c1ccc2nc(-c3ccc(C4(N)CCC4)cc3)c(-c3ccccc3)n2n1 | 21.5%
CN1CCN(C(=O)C(C)(C)c2ccc(C(=O)Nc3cn4cc(-c5cc(C(C)(C)C)cc(C(C)(C)C)c5)ccc4n3)cc2)CC1 | 17.2%
Cc1noc([C@H]2C[C@@H](c3ccc(C(F)(F)F)cc3)CN(C(=O)N3CCS(=O)(=O)C3)C2)n1 | 24%
